Assay results collected from several papers.
Each numbered part is a random draw from the data of one study; scales do not carry over between parts. Changes are numbered by the printed parent chain.

Study 1 — technique: DHFR PCA, deep sequencing; medium: yeast; together with: (+)-ABA 0.11 µM; baseline: wild-type fitted maximum; reading: higher = stronger binding
Target: ABI1, truncated, D143A, DHFR fusion (Arabidopsis thaliana)
Notes: methotrexate growth selection, single substitutions
Parent: PYL1, truncated, DHFR fusion (Arabidopsis thaliana); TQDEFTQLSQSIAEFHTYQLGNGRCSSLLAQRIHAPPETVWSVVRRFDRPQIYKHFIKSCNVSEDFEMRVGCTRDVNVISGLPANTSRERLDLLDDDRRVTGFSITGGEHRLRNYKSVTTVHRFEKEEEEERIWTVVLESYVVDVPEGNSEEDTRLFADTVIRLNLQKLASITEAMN; partner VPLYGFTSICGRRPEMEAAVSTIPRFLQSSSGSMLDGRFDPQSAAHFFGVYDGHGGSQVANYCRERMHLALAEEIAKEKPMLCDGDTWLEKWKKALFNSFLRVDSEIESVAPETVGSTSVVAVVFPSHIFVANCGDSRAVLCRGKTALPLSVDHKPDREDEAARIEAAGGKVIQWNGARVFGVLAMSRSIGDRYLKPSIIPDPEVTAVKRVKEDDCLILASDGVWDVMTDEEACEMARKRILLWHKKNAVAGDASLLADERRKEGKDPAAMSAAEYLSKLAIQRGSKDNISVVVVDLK
`T73S`: “relative binding score” 8.93%.
For `L94M`, “relative binding score” read 14.1%.
`Q10E` — result for “relative binding score”: 54.8%.
`T86Q`: “relative binding score” 11.3%.
`E129R`: “relative binding score” 18.1%.
For `T154E`, “relative binding score” read 0.937%.
Under “relative binding score”, `C60I` is recorded as 3.28%.
`T173I`: “relative binding score” 5.02%.
`P37F` — result for “relative binding score”: 3.03%.
`G23H` — result for “relative binding score”: 10.1%.
For `E14R`, “relative binding score” read 7.56%.
Under “relative binding score”, `Q7S` is recorded as 33.4%.

Study 2 — target: CREBRF, bZIP domain (human); technique: DHFR protein complementation; medium: yeast; baseline: wild-type JUN-FOS pair; reading: higher = stronger binding
Notes: single substitutions, most at no-binding floor
Parent: JUN, bZIP domain (human); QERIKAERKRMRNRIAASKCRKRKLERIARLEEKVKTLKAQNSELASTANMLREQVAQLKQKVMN; partner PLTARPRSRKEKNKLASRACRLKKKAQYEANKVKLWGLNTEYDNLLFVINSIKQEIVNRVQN
`V35N` gave a binding fitness of -1.46 natural log.
`L38D` has a binding fitness of -1.5 natural log.
With `K34N` the binding fitness was -1.41 natural log.
`E54G` has a binding fitness of -1.39 natural log.
With `M51D` the binding fitness was -1.55 natural log.
With `I28M` the binding fitness was -1.45 natural log.
`L38M` gave a binding fitness of -1.4 natural log.
For `V35L`, the binding fitness was -1.57 natural log.
`V35P` gave a binding fitness of -1.54 natural log.

Study 3 — target: CCND1, cyclin fold, Cln2 fusion (human); technique: yeast growth competition, sequencing; medium: yeast; notes: strong parent motif; baseline: not given; reading: higher = stronger binding
Parent: PKN2 docking peptide (human); VSAVRKLDFSDTM; partner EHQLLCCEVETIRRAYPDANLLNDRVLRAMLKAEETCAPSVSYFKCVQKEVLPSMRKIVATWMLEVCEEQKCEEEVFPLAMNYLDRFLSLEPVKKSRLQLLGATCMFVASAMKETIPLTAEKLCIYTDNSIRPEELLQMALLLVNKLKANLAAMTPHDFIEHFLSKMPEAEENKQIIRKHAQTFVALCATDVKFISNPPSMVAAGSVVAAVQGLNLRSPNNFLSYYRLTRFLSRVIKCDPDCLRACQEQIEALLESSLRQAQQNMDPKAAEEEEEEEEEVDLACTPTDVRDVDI
For `VSAVIKLDFSDTM [R5I]`, “normalised enrichment score” read 2.61.
`VLAVRKLDFSDTM [S2L]`: “normalised enrichment score” 2.92.
For `VSAVRKVDFSDTM [L7V]`, “normalised enrichment score” read 0.261.
For `VSAVRKLDFGDTM [S10G]`, “normalised enrichment score” read 5.48.
`VSAVRKLDFFDTM [S10F]` — result for “normalised enrichment score”: 3.17.
`VSAVRKLDASDTM [F9A]` — result for “normalised enrichment score”: -0.0416.
Under “normalised enrichment score”, `VSAVRKLDFSLTM [D11L]` is recorded as 4.77.
Under “normalised enrichment score”, `VSAVRKLDFSETM [D11E]` is recorded as 5.58.
For `VSACRKLDFSDTM [V4C]`, “normalised enrichment score” read 5.35.
For `VSWVRKLDFSDTM [A3W]`, “normalised enrichment score” read 0.401.
For `VSAVRKLDFSMTM [D11M]`, “normalised enrichment score” read 4.13.
`VMAVRKLDFSDTM [S2M]` — result for “normalised enrichment score”: 3.24.
Under “normalised enrichment score”, `VSAVHKLDFSDTM [R5H]` is recorded as 0.698.

Mixed results
For `PhoQ, residues 284 288 289 292 302 303 SACGEM`, the fold induction was 15.2 (PhoP, residues 12 14 15 18 19 IFFTR (Escherichia coli, UniProt P23836); Sort-seq, item: YFP reporter; E. coli; PhoQ-PhoP variant library, together with: 10 µM Mg2+; baseline: high Mg2+ state, higher = stronger signaling).

A few entries again (study 2):
With `I28M` the binding fitness was -1.45 natural log.
For `V35L`, the binding fitness was -1.57 natural log.
`V35P` gave a binding fitness of -1.54 natural log.
`E54G` has a binding fitness of -1.39 natural log.
